Results of several laboratories.
Protocols differ between the studies behind these lines. Values joined by “and” are separate records of one study, mostly repeats; a detail may differ.
ALK: ALK tyrosine kinase receptor (ALK, Homo sapiens, UniProt Q9UM73)
UniProt Q9UM73, sequence (whole entry, unmodified, looked up): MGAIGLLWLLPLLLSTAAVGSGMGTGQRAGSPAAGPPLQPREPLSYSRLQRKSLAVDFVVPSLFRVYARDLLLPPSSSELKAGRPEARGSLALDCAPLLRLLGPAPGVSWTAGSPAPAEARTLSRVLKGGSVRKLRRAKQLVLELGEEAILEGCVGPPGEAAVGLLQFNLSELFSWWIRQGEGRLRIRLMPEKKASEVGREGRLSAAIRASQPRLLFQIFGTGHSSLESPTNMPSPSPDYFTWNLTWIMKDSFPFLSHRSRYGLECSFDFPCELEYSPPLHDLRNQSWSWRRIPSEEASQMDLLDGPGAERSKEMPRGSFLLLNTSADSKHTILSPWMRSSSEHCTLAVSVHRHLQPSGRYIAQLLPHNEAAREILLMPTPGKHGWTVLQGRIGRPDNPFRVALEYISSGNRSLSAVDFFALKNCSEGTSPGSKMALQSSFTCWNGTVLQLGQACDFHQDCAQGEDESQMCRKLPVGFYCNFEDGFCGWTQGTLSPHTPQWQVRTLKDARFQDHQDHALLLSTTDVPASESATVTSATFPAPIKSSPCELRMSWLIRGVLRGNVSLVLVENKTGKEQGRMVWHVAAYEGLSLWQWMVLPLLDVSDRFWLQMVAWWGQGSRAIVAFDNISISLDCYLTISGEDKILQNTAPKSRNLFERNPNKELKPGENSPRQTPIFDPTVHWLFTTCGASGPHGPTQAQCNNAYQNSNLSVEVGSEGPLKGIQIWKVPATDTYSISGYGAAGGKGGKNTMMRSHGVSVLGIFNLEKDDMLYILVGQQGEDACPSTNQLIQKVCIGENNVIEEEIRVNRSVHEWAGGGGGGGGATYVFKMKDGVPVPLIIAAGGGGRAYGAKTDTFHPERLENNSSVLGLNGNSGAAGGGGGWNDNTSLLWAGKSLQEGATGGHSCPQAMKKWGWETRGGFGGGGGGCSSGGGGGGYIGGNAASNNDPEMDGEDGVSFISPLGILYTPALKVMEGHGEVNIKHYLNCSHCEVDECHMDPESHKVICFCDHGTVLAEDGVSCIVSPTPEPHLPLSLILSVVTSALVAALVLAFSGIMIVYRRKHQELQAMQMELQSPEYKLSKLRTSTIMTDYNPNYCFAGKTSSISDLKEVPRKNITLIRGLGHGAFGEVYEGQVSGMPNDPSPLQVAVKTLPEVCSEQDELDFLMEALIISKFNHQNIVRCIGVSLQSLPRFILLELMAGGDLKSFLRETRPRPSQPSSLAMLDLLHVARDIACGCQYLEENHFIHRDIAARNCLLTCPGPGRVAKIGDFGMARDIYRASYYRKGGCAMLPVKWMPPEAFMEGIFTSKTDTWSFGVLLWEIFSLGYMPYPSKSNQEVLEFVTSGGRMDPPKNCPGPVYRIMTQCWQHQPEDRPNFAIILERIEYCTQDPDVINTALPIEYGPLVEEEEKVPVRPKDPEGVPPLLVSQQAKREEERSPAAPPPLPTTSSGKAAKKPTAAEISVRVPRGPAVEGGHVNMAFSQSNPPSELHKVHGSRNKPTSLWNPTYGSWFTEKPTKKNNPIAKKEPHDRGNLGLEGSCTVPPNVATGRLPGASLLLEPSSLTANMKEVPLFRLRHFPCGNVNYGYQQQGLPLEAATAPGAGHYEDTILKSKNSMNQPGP

| Structure (SMILES) | target | test | setting | how to read | measurement | value |
| --- | --- | --- | --- | --- | --- | --- |
| C=CC(=O)Nc1cccc(-c2cnc3[nH]cc(C(=O)NC(C)(C)C)c3n2)c1 | ALK | enzyme activity, inhibitor | 0.1 µM | – | inhibition | 11% |
| C[C@H]1CN(C(=O)c2cn(-c3ccnc(N)n3)c3cc(C#CC4(O)CCCCC4)ccc23)CCN1 | ALK | enzyme activity, inhibitor, FRET | 1 µM | – | inhibition | -1% |
| COc1ccc(NC(=O)Nc2ccc3c(c2)C(=O)N(C(C)CO)CC(C)C(CN(C)Cc2ccc4c(c2)OCO4)O3)cc1 (stereo not drawn) | ALK | kinase activity, KinaseProfiler | 0.03 µM, species human | relative to: control | remaining activity | 91% |
| CNC(=O)C[C@H](Cc1ccc(C#N)cc1)NC(=O)c1cc(-c2ccc(CN[C@H](C)c3ccc(C)cc3)o2)ccc1Cl | ALK | enzyme activity, inhibitor | 1 µM | – | activity vs control | 135% |
| Cc1[nH]nc2c1N=C(c1ccccc1Cl)c1cnc(N3CCOCC3)cc1N2 | ALK | enzyme activity, inhibitor | 0.5 µM | – | inhibition | 70% |
| COc1cc(Nc2nccc(-c3cnn4nc(OC)ccc34)n2)cc(C(F)(F)F)c1 | ALK (Homo sapiens, UniProt Q9UM73, C1156Y) | binding | 1 µM | – | remaining binding | 100% |
| NC(=O)[C@@H](O)C[C@H]1CCc2sc3ncnc(O[C@H]4CC[C@H](N5CCOCC5)CC4)c3c21 | ALK | enzyme activity, inhibitor | 10 µM | – | inhibition | 44% |
| O=C(Cc1ccc(OCc2ccccc2)cc1)NC1(C(=O)O)CCN(C(=O)c2ccc(-c3cccc(Cl)c3)cc2)CC1 | ALK | enzyme activity, inhibitor | 10 µM | – | activity vs control | 141% |
| Cc1cccc(O[C@H]2CCC[C@@H](C(C)CNCc3ccncc3)C2)c1 (relative stereo) | ALK | cell-free assay | 10 µM | – | inhibition | -5% |
| COCC12C(=O)NC3C4(C(OC)CC1O)C1CC5(O)C(OC)C(O)C(OC(C)=O)(C1C5OC(=O)c1ccccc1)C3(O)C(OC)C24 (stereo not drawn) | ALK | kinase activity, inhibitor, ProQinase kinase profiling | 25 µM | relative to: control | remaining activity | 101% and 97% |
| O=C(O)CCC(=O)c1cccc(NS(=O)(=O)c2c[nH]c3ncccc23)c1 | ALK | kinase activity, radiometric | 10 µM | – | remaining activity | 98% |
| CCn1cc(C(=O)O)c(=O)c2c(N)c(F)c(NC3CCCCC3)cc21 | ALK | kinase activity | 0.1 µM, together with: ATP at Km | – | inhibition | 1.7% |
